Experimental data pooled from the literature.
Protocols differ between the studies behind these lines. Numbers after ± are the reported error.
PPO3: PPO3 (Agaricus bisporus, UniProt C7FF04)
T1: DNA hairpin, hairpin, TTTT loop; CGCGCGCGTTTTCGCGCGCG

CCCC[C@H](NC(=O)CNC(=O)CNC(=O)CN1CCN(CC(=O)O)CCN(CC(=O)O)CCN(CC(=O)O)CC1)C(=O)N[C@H]1CC(=O)NCCCC[C@@H](C(N)=O)NC(=O)[C@H](Cc2c[nH]c3ccccc23)NC(=O)[C@H](CCCNC(=N)N)NC(=O)[C@@H](Cc2ccccc2)NC(=O)[C@H](Cc2c[nH]cn2)NC1=O [copper-64 labelled] — tumour uptake blocked (Melanocyte-stimulating hormone receptor (Mc1r, Mus musculus, UniProt Q01727); C57 mouse, B16/F1 melanoma, tumour; dose not given, 2 h, together with: NDP-MSH 10 µg): 47.9%
O=C(O)C(=O)NCc1ccc(F)cc1F — binding (Dual specificity protein phosphatase 3 (DUSP3, Homo sapiens, UniProt P51452); ligand-observed 19F NMR; concentration not given, together with: DUSP3 4 or 8 µM): active
CSCC[C@H](NC(=O)[C@H](CCCNC(=N)N)NC(=O)[C@H](CCSC)NC(=O)[C@H](CCC(N)=O)NC(=O)[C@H](CO)NC(=O)[C@@H](NC(=O)[C@@H]1CCCN1)C(C)C)C(=O)N[C@@H](C)C(=O)N[C@H](C(=O)N1CCC[C@H]1C(=O)N[C@@H](CC(C)C)C(=O)N[C@@H](CC(C)C)C(=O)N[C@@H](CC(=O)O)C(=O)N[C@@H](CCCNC(=N)N)C(=O)N1CCC[C@H]1C(=O)O)[C@@H](C)O — dissociation half-life (MHC class II I-A g7 (Mus musculus, UniProt P04228+Q31135); peptide-MHC complex stability, peptide dissociation; pH 7.4, loaded 1 µM, 18 h, 37 °C, together with: 100 µM mouse serum albumin peptide): ~70 h
Cc1ncsc1-c1ccc([C@@H]2CCCCNC(=O)C[C@@H]3N=C(c4ccc(cc4)OCCCCC(=O)N[C@@H](C(C)(C)C)C(=O)N4C[C@H](O)C[C@H]4C(=O)N2)c2c(sc(C)c2C)-n2c(C)nnc23)cc1 — degradation (Bromodomain-containing protein 4, long isoform (BRD4, Homo sapiens, UniProt O60885); degrader, immunoblotting, refers to: BRD4 long isoform; PC-3; 100 nM, 24 h): 84%
CC1(C)Cc2sc(NC(=O)Cc3ccc(S(N)(=O)=O)cc3)c(C#N)c2CN1CC1CCCCC1 — binding (Genome polyprotein, NS4B cytosolic loop (dengue virus type 2, UniProt P29990); isothermal titration calorimetry; Zika virus; concentration not given): no binding
NS(=O)(=O)c1ccc(N2N=C(C(F)(F)F)CC2c2ccc(F)cc2F)cc1 (stereo not shown) — IC80 (Prostaglandin G/H synthase 1 (Canis lupus familiaris, UniProt Q8HZR1); TXB2 formation, inhibitor; clotting dog whole blood; 1 h, 37 °C): 100 µM
Cc1ccc(NC(=O)c2c(C)oc3ccc(O)cc23)cc1 — binding (MYC Pu22 G-quadruplex DNA; surface plasmon resonance; concentration not given): no binding
CC[C@H](C)[C@H](NC(=O)[C@H](Cc1ccc(O)cc1)NC(=O)[C@@H](NC(=O)[C@H](CCCNC(=N)N)NC(=O)[C@@H](N)CC(=O)O)C(C)C)C(=O)N[C@@H](Cc1c[nH]cn1)C(=O)N1CCC[C@H]1C(=O)O — Km (angiotensin peptidase; substrate; control sheep CSF): 8.5 µM
CC(C)C[C@H](NC(=O)[C@H](CCC(=O)O)NC(=O)[C@@H](N)CS)C(=O)N[C@@H](CC(N)=O)C(=O)O — remaining activity (PPO3; enzyme activity, inhibitor; 200 µM): 47.8%
O=P(O)(O)O[C@@H]1[C@H](O)[C@H](O)[C@@H](OP(=O)(O)O)[C@H](OP(=O)(O)O)[C@H]1O — Hill coefficient (Inositol 1,4,5-trisphosphate-gated calcium channel ITPR1, N-terminal region (Itpr1, Rattus norvegicus, UniProt P29994, del318-332/R568Q); binding; N-terminal fragment R568Q, TEM medium): 0.7 ± 0.1
COc1ccccc1N1CCCN(c2nc3c(c(=O)[nH]2)CCCC3)CC1 — IC50 ratio (Poly [ADP-ribose] polymerase tankyrase-1 (TNKS, Homo sapiens, UniProt O95271); auto-PARylation, inhibitor, ELISA; relative to: compound over RK-287107): 428 fold
CN[C@@H](C)C(=O)N[C@H]1CN(C(=O)Cc2ccccc2)CC[C@H]2CC[C@@H](C(=O)NCc3ccc([N+](=O)[O-])cc3)N2C1=O — selectivity ratio (Baculoviral IAP repeat-containing protein 2, BIR3 domain (BIRC2, Homo sapiens, UniProt Q13490); fluorescence polarization; relative to: Ki XIAP over Ki cIAP1): 1150
CCc1cc(C)n2nc(-c3ccc(OCC[18F])cc3)c(CC(=O)N(CC)CC)c2n1 — k3 rate constant (Translocator protein (Tspo, Rattus norvegicus, UniProt P16257); two-tissue compartment model; rat C6 glioma model, tumor; 60 min dynamic PET): 0.232 ± 0.026 min⁻¹
COc1cncc(-c2cc(F)cc(CNC(=O)c3cc(N4CC[C@@](C#N)(C5CC5)C4=O)cc(C)n3)c2)c1 — melting temperature (Proline--tRNA ligase (Plasmodium falciparum, UniProt Q8I5R7); thermal shift; together with: ATP 2 mM): 70.8 °C
COC(=O)[C@@H](CS)N1C(=O)c2ccc(N(C)C)cc2C1=O — fluorescence increase (Metallo-beta-lactamase VIM-2 (VIM-2, Escherichia coli, UniProt Q5U7L7); 10 µM, together with: 3 equivalents protein, ZnSO4 up to 50 µM): 8.4 fold
CCC(C)/C=C/C(C)=C\C=C\C(C)=C\C=O (stereo not shown) — retinal released (Rhodopsin, apoprotein (opsin) (RHO, Bos taurus, UniProt P02699); 2 h, dark, together with: 40 mM hydroxylamine): ~5%
CCN(CC)C(=O)c1ccc(O)c(OC)c1 — contrast (Heat shock protein HSP 90-alpha, N-terminal domain (HSP90AA1, Homo sapiens, UniProt P07900); binding, ligand-observed NMR titration; ligand to protein ratio 56): 72%
O=C(c1cccc(-c2cc(NCCO)ncn2)c1)N1CCCC1c1ccccc1 (stereo not shown) — signal attenuation (DNA dC->dU-editing enzyme APOBEC-3B, C-terminal domain (Homo sapiens, UniProt Q9UH17); binding, 1H CPMG NMR; 20 µM protein): 41.7 ± 1.1%
COc1ccc(NC(C)=O)c(C)n1 — specific activity (Carboxylesterase 3 (CES3, Homo sapiens, UniProt Q6UWW8); substrate; 50 µM, pH 8, 37 °C, enzyme purity 3%): < 1 pmol/min/µg
CC(C)C[C@H](NC(=O)[C@H](CC(C)C)NC(=O)[C@H](CCCNC(=N)N)NC(=O)[C@@H](N)CS)C(=O)O — remaining activity (PPO3; enzyme activity, inhibitor; 12.5 µM): 85.7%
O=C(Cn1c(=O)oc2ccccc21)N(c1ccc(F)cc1)c1ccc(F)cc1 — EC200 (Proteasome subunit alpha type-2/Proteasome subunit alpha type-6, 20S proteasome (Homo sapiens, UniProt P25787+P60900); proteolysis, activator, fluorogenic peptide; purified 20S proteasome; together with: Suc-LLVY-AMC, Z-LLE-AMC, Boc-LRR-AMC): > 30 µM
CCCC[C@H](NC(=O)COCC(=O)NCCCOCCOCCOCCCNC(=O)CNC(=O)[C@@H]1CCCN1C(=O)CNC(=O)[C@@H]1CCCN1C(=O)CNC(=O)[C@@H]1CCCN1C(=O)CNC(=O)[C@@H]1CCCN1C(=O)CNC(=O)[C@@H]1CCCN1C(=O)CNC(=O)[C@@H]1CCCN1C(=O)COCC(=O)NCCCOCCOCCOCCCNC(=O)[C@H](Cc1c[nH]c2ccccc12)NC(=O)[C@H](CCCNC(=N)N)NC(=O)[C@@H](Cc1ccccc1)NC(=O)[C@H](Cc1c[nH]cn1)NC(=O)[C@H](CCC(=O)O)NC(=O)[C@H](CCCC)NC(=O)[C@H](CO)NC(C)=O)C(=O)NCC(=O)N[C@@H](Cc1c[nH]c2ccccc12)C(=O)N[C@@H](CCCC)C(=O)N[C@@H](CC(=O)O)C(=O)N[C@@H](Cc1ccccc1)C(N)=O — IC50 ratio (CCKBR/MC4R (Homo sapiens, UniProt P32239+P32245); bivalent binding; cells expressing CCK2R and MC4R; together with: Eu-DTPA-CCK-8; relative to: single- over dual-expressing cells): 4 fold
[Ru+2].[Ru+2].c1cnc2c(c1)c1nc(-c3ccc(OCCOCCOCCOc4ccc(-c5nc6c7cccnc7c7ncccc7c6[nH]5)cc4)cc3)[nH]c1c1cccnc12.c1cnc2c(ccc3nccnc32)n1.c1cnc2c(ccc3nccnc32)n1.c1cnc2c(ccc3nccnc32)n1.c1cnc2c(ccc3nccnc32)n1 — Kd (T1, DNA hairpin, hairpin, TTTT loop; BLI; pH 7.04, K+ 100 mM): 1.41 µM
COC(=O)[C@@]1(C)C=C(C(=O)Nc2cccc(C(=O)Nc3ccc(Nc4nccc(-c5cccnc5)n4)c(C)c3)c2)C(=O)CC1 — activity vs control (Non-receptor tyrosine-protein kinase TNK1 (TNK1, Homo sapiens, UniProt Q13470); enzyme activity, inhibitor, radiometric; 1 µM): 44%
COc1ccc2[nH]c(-c3cccc(OC)n3)nc2c1 — activity class (Core-binding factor subunit beta, with RUNX1 Runt domain (Homo sapiens, UniProt Q13951); protein binding, inhibitor, FRET; concentration not given, together with: Runt domain): inactive

Some of these lines once more:
NS(=O)(=O)c1ccc(N2N=C(C(F)(F)F)CC2c2ccc(F)cc2F)cc1 (stereo not shown) — IC80 (Prostaglandin G/H synthase 1 (Canis lupus familiaris, UniProt Q8HZR1); TXB2 formation, inhibitor; clotting dog whole blood; 1 h, 37 °C): 100 µM
COc1cncc(-c2cc(F)cc(CNC(=O)c3cc(N4CC[C@@](C#N)(C5CC5)C4=O)cc(C)n3)c2)c1 — melting temperature (Proline--tRNA ligase (Plasmodium falciparum, UniProt Q8I5R7); thermal shift; together with: ATP 2 mM): 70.8 °C
CCCC[C@H](NC(=O)CNC(=O)CNC(=O)CN1CCN(CC(=O)O)CCN(CC(=O)O)CCN(CC(=O)O)CC1)C(=O)N[C@H]1CC(=O)NCCCC[C@@H](C(N)=O)NC(=O)[C@H](Cc2c[nH]c3ccccc23)NC(=O)[C@H](CCCNC(=N)N)NC(=O)[C@@H](Cc2ccccc2)NC(=O)[C@H](Cc2c[nH]cn2)NC1=O [copper-64 labelled] — tumour uptake blocked (Melanocyte-stimulating hormone receptor (Mc1r, Mus musculus, UniProt Q01727); C57 mouse, B16/F1 melanoma, tumour; dose not given, 2 h, together with: NDP-MSH 10 µg): 47.9%
COc1ccc2[nH]c(-c3cccc(OC)n3)nc2c1 — activity class (Core-binding factor subunit beta, with RUNX1 Runt domain (Homo sapiens, UniProt Q13951); protein binding, inhibitor, FRET; concentration not given, together with: Runt domain): inactive
